# Experimental data gathered from unrelated publications.
# Parts stem from different laboratories: compare values within a part only.
# Chain of UniProt P57058 (whole entry, looked up): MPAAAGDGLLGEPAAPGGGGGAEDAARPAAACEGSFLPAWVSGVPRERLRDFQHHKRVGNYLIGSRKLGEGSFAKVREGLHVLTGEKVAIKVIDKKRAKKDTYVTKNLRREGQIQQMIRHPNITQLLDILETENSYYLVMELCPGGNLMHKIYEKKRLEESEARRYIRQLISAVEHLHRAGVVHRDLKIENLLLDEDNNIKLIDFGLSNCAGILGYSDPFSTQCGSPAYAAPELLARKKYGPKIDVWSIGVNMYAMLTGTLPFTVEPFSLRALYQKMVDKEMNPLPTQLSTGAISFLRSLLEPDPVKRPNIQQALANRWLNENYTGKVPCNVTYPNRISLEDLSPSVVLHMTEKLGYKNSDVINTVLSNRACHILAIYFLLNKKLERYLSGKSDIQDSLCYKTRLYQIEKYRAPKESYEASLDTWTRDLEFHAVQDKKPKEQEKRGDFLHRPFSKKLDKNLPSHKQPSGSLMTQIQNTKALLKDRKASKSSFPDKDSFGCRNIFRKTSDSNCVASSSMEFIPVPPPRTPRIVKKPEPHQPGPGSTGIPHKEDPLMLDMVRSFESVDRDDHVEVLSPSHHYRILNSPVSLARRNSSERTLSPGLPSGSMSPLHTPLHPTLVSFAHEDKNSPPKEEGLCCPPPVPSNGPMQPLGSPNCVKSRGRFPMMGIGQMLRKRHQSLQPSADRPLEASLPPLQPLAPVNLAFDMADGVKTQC
# Chain of UniProt Q9H093 (whole entry, looked up): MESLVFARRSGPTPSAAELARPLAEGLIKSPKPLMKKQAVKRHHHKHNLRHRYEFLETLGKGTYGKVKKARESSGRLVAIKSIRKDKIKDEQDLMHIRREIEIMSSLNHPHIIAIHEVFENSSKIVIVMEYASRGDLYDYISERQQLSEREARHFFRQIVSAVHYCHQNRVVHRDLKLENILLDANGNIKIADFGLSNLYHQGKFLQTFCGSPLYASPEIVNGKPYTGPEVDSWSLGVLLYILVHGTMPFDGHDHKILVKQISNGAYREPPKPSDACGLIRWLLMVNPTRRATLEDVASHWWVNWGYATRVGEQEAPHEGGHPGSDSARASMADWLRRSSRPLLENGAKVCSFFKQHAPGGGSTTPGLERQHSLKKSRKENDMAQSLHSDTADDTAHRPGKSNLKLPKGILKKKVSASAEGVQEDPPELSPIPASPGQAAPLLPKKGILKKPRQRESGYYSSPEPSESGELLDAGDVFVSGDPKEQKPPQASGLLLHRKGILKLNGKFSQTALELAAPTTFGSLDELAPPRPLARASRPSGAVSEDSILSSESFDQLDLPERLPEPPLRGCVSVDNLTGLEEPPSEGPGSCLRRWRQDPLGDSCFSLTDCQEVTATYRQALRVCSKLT
# Chain of UniProt P41240 (whole entry, looked up): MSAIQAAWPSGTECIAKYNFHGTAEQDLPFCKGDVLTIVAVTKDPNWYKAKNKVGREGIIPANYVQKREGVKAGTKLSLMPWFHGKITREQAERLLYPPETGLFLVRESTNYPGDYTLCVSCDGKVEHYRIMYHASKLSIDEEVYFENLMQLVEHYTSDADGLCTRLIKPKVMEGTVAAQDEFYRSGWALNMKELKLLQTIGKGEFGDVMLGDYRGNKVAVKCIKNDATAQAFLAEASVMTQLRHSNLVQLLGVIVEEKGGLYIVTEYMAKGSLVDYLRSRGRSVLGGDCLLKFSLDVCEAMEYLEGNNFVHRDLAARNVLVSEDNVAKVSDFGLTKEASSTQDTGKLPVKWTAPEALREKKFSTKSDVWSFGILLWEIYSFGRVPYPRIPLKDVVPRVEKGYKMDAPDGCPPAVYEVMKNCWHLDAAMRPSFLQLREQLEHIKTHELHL
# Chain of UniProt Q96D53 (whole entry, looked up): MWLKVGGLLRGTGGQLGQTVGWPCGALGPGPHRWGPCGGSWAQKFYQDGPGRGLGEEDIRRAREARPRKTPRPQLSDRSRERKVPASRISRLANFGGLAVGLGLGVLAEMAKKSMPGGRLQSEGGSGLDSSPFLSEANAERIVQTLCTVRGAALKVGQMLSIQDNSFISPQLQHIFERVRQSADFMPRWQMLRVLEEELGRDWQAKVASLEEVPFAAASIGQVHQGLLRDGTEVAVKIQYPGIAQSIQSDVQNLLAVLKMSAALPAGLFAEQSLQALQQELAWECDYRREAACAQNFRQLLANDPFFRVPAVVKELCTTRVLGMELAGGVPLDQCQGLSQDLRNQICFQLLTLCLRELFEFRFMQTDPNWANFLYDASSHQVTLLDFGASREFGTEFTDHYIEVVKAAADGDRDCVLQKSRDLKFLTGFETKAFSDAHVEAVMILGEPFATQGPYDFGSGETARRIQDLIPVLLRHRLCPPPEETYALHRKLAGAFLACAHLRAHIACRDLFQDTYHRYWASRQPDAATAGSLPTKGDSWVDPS
# Chain of UniProt P30530 (whole entry, looked up): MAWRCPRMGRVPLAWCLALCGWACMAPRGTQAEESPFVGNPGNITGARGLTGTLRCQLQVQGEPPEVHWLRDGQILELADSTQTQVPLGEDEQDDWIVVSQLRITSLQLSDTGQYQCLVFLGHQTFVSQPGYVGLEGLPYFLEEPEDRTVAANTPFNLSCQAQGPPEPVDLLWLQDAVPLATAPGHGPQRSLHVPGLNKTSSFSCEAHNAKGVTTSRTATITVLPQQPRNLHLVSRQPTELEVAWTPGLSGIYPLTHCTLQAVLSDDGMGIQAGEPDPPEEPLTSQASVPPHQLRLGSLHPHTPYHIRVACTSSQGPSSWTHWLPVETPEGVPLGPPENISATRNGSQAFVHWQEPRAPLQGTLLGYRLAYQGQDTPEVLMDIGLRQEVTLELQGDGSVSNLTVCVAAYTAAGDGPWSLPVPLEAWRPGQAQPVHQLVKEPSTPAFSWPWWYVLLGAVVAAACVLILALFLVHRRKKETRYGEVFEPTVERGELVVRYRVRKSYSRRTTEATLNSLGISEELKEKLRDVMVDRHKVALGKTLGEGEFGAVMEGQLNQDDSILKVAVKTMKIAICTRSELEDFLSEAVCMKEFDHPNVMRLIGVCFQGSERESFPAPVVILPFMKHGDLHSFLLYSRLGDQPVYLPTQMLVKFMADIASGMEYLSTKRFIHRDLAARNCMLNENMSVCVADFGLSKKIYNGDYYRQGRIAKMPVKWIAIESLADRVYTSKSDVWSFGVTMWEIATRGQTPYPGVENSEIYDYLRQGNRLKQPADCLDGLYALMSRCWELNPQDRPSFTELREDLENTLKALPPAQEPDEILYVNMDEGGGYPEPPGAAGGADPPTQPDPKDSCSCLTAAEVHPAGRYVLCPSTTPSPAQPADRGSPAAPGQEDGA
# Chain of UniProt P46734 (whole entry, looked up): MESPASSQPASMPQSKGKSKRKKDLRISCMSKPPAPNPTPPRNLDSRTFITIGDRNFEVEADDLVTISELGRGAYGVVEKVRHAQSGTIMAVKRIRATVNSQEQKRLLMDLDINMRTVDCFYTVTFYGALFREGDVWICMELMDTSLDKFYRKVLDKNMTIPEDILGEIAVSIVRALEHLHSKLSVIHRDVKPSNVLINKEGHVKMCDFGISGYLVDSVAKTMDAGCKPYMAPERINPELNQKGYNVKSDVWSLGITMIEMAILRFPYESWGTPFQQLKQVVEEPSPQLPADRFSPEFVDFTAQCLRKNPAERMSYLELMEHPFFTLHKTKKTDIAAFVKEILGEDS

# Sample 1 — Molecule: B1 (IAA19); method: two-hybrid; direction: higher = firmer interaction
# B1: IAA19 (Arabidopsis thaliana, UniProt O24409); chain MEKEGLGLEITELRLGLPGRDVAEKMMKKRAFTEMNMTSSGSNSDQCESGVVSSGGDAEKVNDSPAAKSQVVGWPPVCSYRKKNSCKEASTTKVGLGYVKVSMDGVPYLRKMDLGSSQGYDDLAFALDKLFGFRGIGVALKDGDNCEYVTIYEDKDGDWMLAGDVPWGMFLESCKRLRIMKRSDATGFGLQPRGVDE
partner,scale,positive tests
"IAA28 (Arabidopsis thaliana, UniProt Q9XFM0)",relative to: out of 2 tests,2
"ARF2 727-859 (Arabidopsis thaliana, UniProt Q94JM3)",relative to: out of 4 tests,0
"ARF1 538-665 (Arabidopsis thaliana, UniProt Q8L7G0)",relative to: out of 2 tests,0
"ARF4 660-788 (Arabidopsis thaliana, UniProt Q9ZTX9)",relative to: out of 4 tests,1
"ARF7 1030-1164 (Arabidopsis thaliana, UniProt P93022)",relative to: out of 4 tests,2

# Sample 2 — effect on: cell-free assay; method: competition with immobilised ligand; concentration: 1 µM
# SMILES: Cc1cc(-n2nc(Cc3cc(F)cc(C(F)(F)F)c3)nc2C)ccc1C(N)=O
target,remaining binding [%]
"MAP/microtubule affinity-regulating kinase 3 (MARK3, Homo sapiens, UniProt P27448)",100
"RAC-gamma serine/threonine-protein kinase (AKT3, Homo sapiens, UniProt Q9Y243)",100
"Tyrosine-protein kinase CSK (CSK, Homo sapiens, UniProt P41240)",97
"Protein kinase C eta type (PRKCH, Homo sapiens, UniProt P24723)",97
"NUAK family SNF1-like kinase 2 (NUAK2, Homo sapiens, UniProt Q9H093)",100
"Mitogen-activated protein kinase kinase kinase 2 (MAP3K2, Homo sapiens, UniProt Q9Y2U5)",100
"Atypical kinase COQ8B, mitochondrial (COQ8B, Homo sapiens, UniProt Q96D53)",100
"Interleukin-1 receptor-associated kinase 4 (IRAK4, Homo sapiens, UniProt Q9NWZ3)",100
"3-phosphoinositide-dependent protein kinase 1 (PDPK1, Homo sapiens, UniProt O15530)",100
"Serine/threonine-protein kinase D1 (PRKD1, Homo sapiens, UniProt Q15139)",92
"Dual specificity mitogen-activated protein kinase kinase 3 (MAP2K3, Homo sapiens, UniProt P46734)",100
"Tyrosine-protein kinase BTK (BTK, Homo sapiens, UniProt Q06187)",100
"Tyrosine-protein kinase receptor UFO (AXL, Homo sapiens, UniProt P30530)",99
"Serine/threonine-protein kinase Nek1 (NEK1, Homo sapiens, UniProt Q96PY6)",54
"Proto-oncogene tyrosine-protein kinase ROS (ROS1, Homo sapiens, UniProt P08922)",87
"Dual specificity protein kinase CLK3 (CLK3, Homo sapiens, UniProt P49761)",94
"Serine/threonine-protein kinase pim-2 (PIM2, Homo sapiens, UniProt Q9P1W9)",83
"Receptor tyrosine-protein kinase erbB-2 (ERBB2, Homo sapiens, UniProt P04626)",99
"Interleukin-1 receptor-associated kinase 1 (IRAK1, Homo sapiens, UniProt P51617)",100
"Ephrin type-A receptor 3 (EPHA3, Homo sapiens, UniProt P29320)",94
"Mitogen-activated protein kinase kinase kinase kinase 4 (MAP4K4, Homo sapiens, UniProt O95819)",100
"Hormonally up-regulated neu tumor-associated kinase (HUNK, Homo sapiens, UniProt P57058)",89

# Sample 3 — method: RNA Bind-n-Seq; form: RNA; sample: in vitro; concentration: 1 µM; setting: whole 134-nt RNA, ends assumed; together with: 150 mM KCl; relative to: input library; direction: higher = stronger binding
# Target: Ras GTPase-activating protein-binding protein 1, C-terminal RGG region (G3BP1, Homo sapiens, UniProt Q13283)
# Chain of UniProt Q13283 (whole entry, looked up): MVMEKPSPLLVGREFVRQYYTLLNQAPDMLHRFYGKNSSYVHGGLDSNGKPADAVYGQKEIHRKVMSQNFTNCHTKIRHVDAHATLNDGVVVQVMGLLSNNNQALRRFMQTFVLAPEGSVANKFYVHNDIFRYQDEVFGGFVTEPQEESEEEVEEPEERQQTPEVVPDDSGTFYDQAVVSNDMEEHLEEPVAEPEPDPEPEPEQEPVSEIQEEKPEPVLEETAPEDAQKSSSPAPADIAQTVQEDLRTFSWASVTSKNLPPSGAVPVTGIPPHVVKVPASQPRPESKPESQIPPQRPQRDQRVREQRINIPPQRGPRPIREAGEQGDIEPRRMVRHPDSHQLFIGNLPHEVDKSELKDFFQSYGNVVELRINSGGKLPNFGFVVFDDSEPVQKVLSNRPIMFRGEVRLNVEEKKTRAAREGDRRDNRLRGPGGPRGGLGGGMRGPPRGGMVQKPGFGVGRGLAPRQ
Oligonucleotide,log2 enrichment
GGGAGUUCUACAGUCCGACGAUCACCAUGCAGGUGGGCAUCUUUGGGAAGUGGGGCAAGGGGGGGAUAGGGAGGGGGGUAACACUUUGGAAACAGGUGGUCCCAGGUCGUUUCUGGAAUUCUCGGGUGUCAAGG,-1.34
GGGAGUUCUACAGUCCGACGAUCUAACUUUAGAGGAGGAUCUGAUGGAUAUGGCAGUGGUCGUGGAUUUGGGGAUGGCUAUAAUGGGUAUGGAGGAGGACCUGGAGGUGGCAAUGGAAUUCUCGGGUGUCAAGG,-0.533
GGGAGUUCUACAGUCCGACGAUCACAAGUGGAGGAGAAGAACUUAGAAGAACUAGAGGAGAAAUCUACUACUCCUCCUCCGGCAGAACCUGUUUCUCUGCCACAAGAACCACCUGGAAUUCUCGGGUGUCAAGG,-0.794
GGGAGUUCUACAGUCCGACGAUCAGUCCUGUGCUACACAUCGUAUGUACCGAAUCAAACCCCCAAAUUUUUAAAUUUAAAAAAGUAUUAUGUUACGCCGUUCGGAUCUGCACUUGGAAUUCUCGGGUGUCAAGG,-0.987
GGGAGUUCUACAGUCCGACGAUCUGGGAGGUGGAUUUUGUUUAUUUUUUUAGCUCAUUUCCAGGGGUGGGAAUUUUUUUUUAAUAUGUGUCAUGAAUAUAGUUGUUUUUGAAAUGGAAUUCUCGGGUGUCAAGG,2.87
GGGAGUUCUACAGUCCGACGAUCCCUCAAGUCCUGUGCUACACAUCGUAUGUACCGAAUCGGAGGAAAAAGGAGGAAAGUAUUAUGUUACGCCGUUCGGAUCUGCACUUCCAGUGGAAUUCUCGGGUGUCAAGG,-0.729
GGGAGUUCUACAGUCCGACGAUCUGGCCCUGGUGGCAUGCGGGGAGGAAGAGGUGGCCUCAUGGAUCGUGGAGGUCCCGGUGGAAUGUUCAGAGGUGGCCGUGGUGGAGACAGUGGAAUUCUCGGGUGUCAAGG,0.157
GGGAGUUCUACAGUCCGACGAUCGCAGGAAGUAAAAACAAAUGGAAAUGCUUCGGAUAGUGGCAGGGGUGGGGGUUGAAAAGGAAAGGGUGGGAUGGGAGUGGGUAAAGAGUUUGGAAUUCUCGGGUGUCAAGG,1.79

# Sample 4 — effect on: enzyme activity; action: inhibitor; concentration: 0.5 µM; relative to: control
# Target: Mitogen-activated protein kinase kinase kinase 11 (MAP3K11, Homo sapiens, UniProt Q16584)
# Chain of UniProt Q16584 (whole entry, looked up): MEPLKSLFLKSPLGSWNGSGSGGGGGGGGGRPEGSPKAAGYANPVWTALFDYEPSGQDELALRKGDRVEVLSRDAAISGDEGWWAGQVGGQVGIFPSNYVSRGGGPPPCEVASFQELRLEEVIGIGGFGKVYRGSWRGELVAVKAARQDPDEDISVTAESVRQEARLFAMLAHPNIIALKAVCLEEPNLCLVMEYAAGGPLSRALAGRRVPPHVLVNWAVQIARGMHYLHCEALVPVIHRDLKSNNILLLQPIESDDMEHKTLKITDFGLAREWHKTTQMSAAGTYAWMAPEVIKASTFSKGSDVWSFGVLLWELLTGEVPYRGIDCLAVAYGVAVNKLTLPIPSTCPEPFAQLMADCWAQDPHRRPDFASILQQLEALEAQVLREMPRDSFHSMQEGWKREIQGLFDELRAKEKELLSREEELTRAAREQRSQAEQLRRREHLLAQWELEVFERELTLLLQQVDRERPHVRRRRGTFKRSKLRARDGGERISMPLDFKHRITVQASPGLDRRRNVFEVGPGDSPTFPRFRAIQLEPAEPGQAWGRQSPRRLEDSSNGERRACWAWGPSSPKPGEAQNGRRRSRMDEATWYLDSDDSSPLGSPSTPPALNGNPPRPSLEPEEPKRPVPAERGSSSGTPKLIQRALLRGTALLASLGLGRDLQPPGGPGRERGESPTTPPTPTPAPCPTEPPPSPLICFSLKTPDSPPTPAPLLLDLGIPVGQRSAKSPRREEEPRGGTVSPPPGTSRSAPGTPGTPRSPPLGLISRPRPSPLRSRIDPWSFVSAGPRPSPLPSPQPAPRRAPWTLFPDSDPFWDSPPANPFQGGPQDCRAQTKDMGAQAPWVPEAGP
Structure (SMILES),remaining activity [%]
O=C1NC(=O)C(c2cn(CCCn3ccnc3)c3ccccc23)=C1Nc1ccccc1,13.3
Nc1ccc2ncnc(NCCc3ccc(Oc4ccccc4)cc3)c2c1,103
Nc1[nH]nc2nc3ccccc3nc12,96.3
CC(C)[C@H](CO)Nc1nc(Nc2cc(N)cc(Cl)c2)c2ncn(C(C)C)c2n1,17.7
NCCNc1ncc(C(N)=O)c(Nc2cccc(C(F)(F)F)c2)n1,61.8
N#CC(C#N)=C(N)/C(C#N)=C/c1ccc(O)cc1,94.8
CO[C@H]1C[C@@H]2CC[C@@H](C)[C@@](O)(O2)C(=O)C(=O)N2CCCC[C@H]2C(=O)O[C@H]([C@H](C)C[C@@H]2CC[C@@H](O)[C@H](OC)C2)CC(=O)[C@H](C)/C=C(\C)[C@@H](O)[C@@H](OC)C(=O)[C@H](C)C[C@H](C)/C=C/C=C/C=C/1C,98.5
CCOC(=O)c1c(C)[nH]c(/C=C2\C(=O)Nc3ccccc32)c1C,47
Oc1ccc(-c2nc(-c3ccncc3)c(-c3ccc(F)cc3)[nH]2)cc1,25.2
Cn1sc(=O)n(Cc2ccccc2)c1=O,95.3
C#Cc1cccc(Nc2ncnc3cc(OCCOC)c(OCCOC)cc23)c1,104
O=C1NC(=O)C(c2cn(CCCO)c3ncccc23)=C1c1cnccn1,80.8
O=C(O)c1ccc2c3c1cccc3c(=O)n1c3ccccc3nc21,23.7
O=C(CCCc1ccc(-c2ccccc2F)cc1)Nc1ccc(O)cc1,101

# Single results of other studies
Compound,test,test system,conditions,measurement,result
CC(C)n1cnc(-c2ccc(F)cc2)c1-c1ncc(C(=O)Nc2ccc(N3CCN(C)CC3)cc2)[nH]1,phase 2a trial,idiopathic pulmonary fibrosis patients,"60 mg once daily, adverse event grade 4",patients with coagulopathy,0%

# For quick reference, copied from above (sample 1):
partner,scale,positive tests
"IAA28 (Arabidopsis thaliana, UniProt Q9XFM0)",relative to: out of 2 tests,2
"ARF2 727-859 (Arabidopsis thaliana, UniProt Q94JM3)",relative to: out of 4 tests,0
"ARF1 538-665 (Arabidopsis thaliana, UniProt Q8L7G0)",relative to: out of 2 tests,0
